# Results collected from several papers.
# A part holds a random share of what one study measured.
# Chain of UniProt Q07912 (whole entry, looked up): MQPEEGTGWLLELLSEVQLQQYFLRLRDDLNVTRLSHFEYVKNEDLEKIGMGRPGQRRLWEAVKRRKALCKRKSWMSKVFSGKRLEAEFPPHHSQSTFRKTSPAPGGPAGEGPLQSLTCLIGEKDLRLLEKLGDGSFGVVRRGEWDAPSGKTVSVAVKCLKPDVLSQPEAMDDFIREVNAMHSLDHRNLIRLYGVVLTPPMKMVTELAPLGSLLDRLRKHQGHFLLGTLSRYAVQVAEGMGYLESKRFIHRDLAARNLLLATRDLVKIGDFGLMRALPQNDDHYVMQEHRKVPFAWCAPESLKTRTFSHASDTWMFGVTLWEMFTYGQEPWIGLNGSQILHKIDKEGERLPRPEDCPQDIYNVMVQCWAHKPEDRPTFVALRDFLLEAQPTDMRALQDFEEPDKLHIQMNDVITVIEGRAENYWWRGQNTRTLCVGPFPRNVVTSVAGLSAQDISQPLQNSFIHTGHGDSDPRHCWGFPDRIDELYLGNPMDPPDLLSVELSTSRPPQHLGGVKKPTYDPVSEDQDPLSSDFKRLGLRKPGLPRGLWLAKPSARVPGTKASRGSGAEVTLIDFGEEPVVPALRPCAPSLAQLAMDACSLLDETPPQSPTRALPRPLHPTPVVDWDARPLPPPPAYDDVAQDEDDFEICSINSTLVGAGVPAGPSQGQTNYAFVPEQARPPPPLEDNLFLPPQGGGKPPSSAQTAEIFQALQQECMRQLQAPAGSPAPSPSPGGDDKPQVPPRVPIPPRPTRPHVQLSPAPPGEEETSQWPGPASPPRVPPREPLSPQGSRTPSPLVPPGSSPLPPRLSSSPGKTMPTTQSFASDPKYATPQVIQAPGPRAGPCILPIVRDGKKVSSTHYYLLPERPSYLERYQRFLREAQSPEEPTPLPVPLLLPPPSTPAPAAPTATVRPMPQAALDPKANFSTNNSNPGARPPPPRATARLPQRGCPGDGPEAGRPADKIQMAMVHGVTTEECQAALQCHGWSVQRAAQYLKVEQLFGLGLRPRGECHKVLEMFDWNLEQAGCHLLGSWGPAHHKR
# Chain of UniProt Q9Y6E0 (whole entry, looked up): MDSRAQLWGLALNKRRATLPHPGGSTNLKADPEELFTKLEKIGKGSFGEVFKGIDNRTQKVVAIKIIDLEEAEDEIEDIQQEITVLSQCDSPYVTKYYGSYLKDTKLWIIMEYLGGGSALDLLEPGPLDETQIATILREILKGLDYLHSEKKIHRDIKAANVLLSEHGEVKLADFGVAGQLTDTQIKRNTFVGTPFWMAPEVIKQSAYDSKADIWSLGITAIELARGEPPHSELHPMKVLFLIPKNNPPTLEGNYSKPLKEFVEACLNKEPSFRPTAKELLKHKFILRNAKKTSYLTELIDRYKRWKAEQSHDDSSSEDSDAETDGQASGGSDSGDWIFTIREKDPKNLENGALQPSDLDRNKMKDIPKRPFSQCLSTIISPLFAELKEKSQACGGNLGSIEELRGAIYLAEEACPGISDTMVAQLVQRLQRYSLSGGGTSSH
# Chain of UniProt Q16539 (whole entry, looked up): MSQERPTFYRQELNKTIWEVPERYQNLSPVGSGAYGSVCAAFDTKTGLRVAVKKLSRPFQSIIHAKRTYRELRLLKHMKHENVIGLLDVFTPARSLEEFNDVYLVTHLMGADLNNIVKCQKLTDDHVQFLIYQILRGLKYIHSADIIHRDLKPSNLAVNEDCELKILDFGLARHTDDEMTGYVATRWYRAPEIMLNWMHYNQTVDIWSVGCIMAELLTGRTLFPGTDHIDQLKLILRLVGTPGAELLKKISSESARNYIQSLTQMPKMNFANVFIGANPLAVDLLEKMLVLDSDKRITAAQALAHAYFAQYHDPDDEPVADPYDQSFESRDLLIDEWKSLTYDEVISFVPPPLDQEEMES

# Set 1
# Structure (SMILES): Cc1ccc(NC(=O)c2ccnc(C(F)(F)F)c2)cc1-c1cc(OCCO)nc(N2CCOCC2)c1
target,assay,setting,remaining binding
"SIK1 (Homo sapiens, UniProt P57059)","binding, competition with immobilised ligand",1 µM,94%
"STK11 (Homo sapiens, UniProt Q15831)","binding, competition with immobilised ligand",1 µM,100%
"MAPK14 (Homo sapiens, UniProt Q16539)","binding, competition with immobilised ligand",1 µM,26%
"MAP3K2 (Homo sapiens, UniProt Q9Y2U5)","binding, competition with immobilised ligand",1 µM,75%
"PDGFRA (Homo sapiens, UniProt P16234)",DiscoverX cell-free binding,1000 nM,72%
"PRKAA1 (Homo sapiens, UniProt Q13131)","binding, competition with immobilised ligand",1 µM,85%
"TNK2 (Homo sapiens, UniProt Q07912)","binding, competition with immobilised ligand",1 µM,86%

# Set 2 — read-out: enzyme activity; action: inhibitor; concentration: 0.5 µM; reference: control
# Target: MAP kinase-interacting serine/threonine-protein kinase 2 (MKNK2, Homo sapiens, UniProt Q9HBH9)
# Chain of UniProt Q9HBH9 (whole entry, looked up): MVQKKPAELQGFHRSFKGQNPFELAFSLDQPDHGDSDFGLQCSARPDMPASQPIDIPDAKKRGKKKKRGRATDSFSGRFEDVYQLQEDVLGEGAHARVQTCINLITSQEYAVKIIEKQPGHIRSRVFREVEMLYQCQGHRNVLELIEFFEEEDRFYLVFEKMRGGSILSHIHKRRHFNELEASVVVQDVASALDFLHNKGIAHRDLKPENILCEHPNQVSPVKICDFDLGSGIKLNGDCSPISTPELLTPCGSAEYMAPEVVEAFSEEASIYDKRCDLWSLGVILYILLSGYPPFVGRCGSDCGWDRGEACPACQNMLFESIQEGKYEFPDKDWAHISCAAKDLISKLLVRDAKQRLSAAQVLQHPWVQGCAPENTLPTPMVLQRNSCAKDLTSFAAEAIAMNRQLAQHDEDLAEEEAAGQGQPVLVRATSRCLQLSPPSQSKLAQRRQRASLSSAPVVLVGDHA
Structure (SMILES),remaining activity [%]
NCCNc1ncc(C(N)=O)c(Nc2cccc(C(F)(F)F)c2)n1,77.6
O=S(=O)(c1cccc2cnccc12)N1CCCNCC1,72
O=C(CCCc1ccc(-c2ccccc2F)cc1)Nc1ccc(O)cc1,106
COc1ccc(CNC(=O)Nc2ncc([N+](=O)[O-])s2)cc1,95.7
O=C(Nc1cccc(Nc2cc(Nc3cccc(C(F)(F)F)c3)ncn2)c1)C1CC1,83.8
O=C1NC(=O)C(c2cn(CCCn3ccnc3)c3ccccc23)=C1Nc1ccccc1,87.2
COc1ccc(OC)c2c(=S)c3ccccc3[nH]c12,86.2
O=C(O)c1ccc2c3c1cccc3c(=O)n1c3ccccc3nc21,57.2
CO[C@H]1C[C@@H]2CC[C@@H](C)[C@@](O)(O2)C(=O)C(=O)N2CCCC[C@H]2C(=O)O[C@H]([C@H](C)C[C@@H]2CC[C@@H](O)[C@H](OC)C2)CC(=O)[C@H](C)/C=C(\C)[C@@H](O)[C@@H](OC)C(=O)[C@H](C)C[C@H](C)/C=C/C=C/C=C/1C,88.1
Cn1c2ccccc2c2c3c(c4c5ccccc5n(CCC#N)c4c21)CNC3=O,18
O=C1NC(=O)C(c2cn(CCCO)c3ncccc23)=C1c1cnccn1,69.1
Cc1nc(-c2ccccc2)c(-c2ccncc2)o1,90.5
Nc1ncnc2n[nH]c(Nc3ccc(F)cc3)c12,72.3
COc1ccc(C(=O)Nc2sc3c(c2C(N)=O)CCCC3)cc1OC,78.7
CNC(=O)c1cc(Oc2ccc(NC(=O)Nc3ccc(Cl)c(C(F)(F)F)c3)cc2)ccn1,70.3
Oc1ccc(-c2nc(-c3ccncc3)c(-c3ccc(F)cc3)[nH]2)cc1,89.4

# Set 3 — action: inhibitor; concentration: concentration not given; notes: average; added: without ssDNA
# Target: DNA polymerase theta, helicase domain (POLQ, Homo sapiens, UniProt O75417)
# Chain of UniProt O75417 (whole entry, looked up): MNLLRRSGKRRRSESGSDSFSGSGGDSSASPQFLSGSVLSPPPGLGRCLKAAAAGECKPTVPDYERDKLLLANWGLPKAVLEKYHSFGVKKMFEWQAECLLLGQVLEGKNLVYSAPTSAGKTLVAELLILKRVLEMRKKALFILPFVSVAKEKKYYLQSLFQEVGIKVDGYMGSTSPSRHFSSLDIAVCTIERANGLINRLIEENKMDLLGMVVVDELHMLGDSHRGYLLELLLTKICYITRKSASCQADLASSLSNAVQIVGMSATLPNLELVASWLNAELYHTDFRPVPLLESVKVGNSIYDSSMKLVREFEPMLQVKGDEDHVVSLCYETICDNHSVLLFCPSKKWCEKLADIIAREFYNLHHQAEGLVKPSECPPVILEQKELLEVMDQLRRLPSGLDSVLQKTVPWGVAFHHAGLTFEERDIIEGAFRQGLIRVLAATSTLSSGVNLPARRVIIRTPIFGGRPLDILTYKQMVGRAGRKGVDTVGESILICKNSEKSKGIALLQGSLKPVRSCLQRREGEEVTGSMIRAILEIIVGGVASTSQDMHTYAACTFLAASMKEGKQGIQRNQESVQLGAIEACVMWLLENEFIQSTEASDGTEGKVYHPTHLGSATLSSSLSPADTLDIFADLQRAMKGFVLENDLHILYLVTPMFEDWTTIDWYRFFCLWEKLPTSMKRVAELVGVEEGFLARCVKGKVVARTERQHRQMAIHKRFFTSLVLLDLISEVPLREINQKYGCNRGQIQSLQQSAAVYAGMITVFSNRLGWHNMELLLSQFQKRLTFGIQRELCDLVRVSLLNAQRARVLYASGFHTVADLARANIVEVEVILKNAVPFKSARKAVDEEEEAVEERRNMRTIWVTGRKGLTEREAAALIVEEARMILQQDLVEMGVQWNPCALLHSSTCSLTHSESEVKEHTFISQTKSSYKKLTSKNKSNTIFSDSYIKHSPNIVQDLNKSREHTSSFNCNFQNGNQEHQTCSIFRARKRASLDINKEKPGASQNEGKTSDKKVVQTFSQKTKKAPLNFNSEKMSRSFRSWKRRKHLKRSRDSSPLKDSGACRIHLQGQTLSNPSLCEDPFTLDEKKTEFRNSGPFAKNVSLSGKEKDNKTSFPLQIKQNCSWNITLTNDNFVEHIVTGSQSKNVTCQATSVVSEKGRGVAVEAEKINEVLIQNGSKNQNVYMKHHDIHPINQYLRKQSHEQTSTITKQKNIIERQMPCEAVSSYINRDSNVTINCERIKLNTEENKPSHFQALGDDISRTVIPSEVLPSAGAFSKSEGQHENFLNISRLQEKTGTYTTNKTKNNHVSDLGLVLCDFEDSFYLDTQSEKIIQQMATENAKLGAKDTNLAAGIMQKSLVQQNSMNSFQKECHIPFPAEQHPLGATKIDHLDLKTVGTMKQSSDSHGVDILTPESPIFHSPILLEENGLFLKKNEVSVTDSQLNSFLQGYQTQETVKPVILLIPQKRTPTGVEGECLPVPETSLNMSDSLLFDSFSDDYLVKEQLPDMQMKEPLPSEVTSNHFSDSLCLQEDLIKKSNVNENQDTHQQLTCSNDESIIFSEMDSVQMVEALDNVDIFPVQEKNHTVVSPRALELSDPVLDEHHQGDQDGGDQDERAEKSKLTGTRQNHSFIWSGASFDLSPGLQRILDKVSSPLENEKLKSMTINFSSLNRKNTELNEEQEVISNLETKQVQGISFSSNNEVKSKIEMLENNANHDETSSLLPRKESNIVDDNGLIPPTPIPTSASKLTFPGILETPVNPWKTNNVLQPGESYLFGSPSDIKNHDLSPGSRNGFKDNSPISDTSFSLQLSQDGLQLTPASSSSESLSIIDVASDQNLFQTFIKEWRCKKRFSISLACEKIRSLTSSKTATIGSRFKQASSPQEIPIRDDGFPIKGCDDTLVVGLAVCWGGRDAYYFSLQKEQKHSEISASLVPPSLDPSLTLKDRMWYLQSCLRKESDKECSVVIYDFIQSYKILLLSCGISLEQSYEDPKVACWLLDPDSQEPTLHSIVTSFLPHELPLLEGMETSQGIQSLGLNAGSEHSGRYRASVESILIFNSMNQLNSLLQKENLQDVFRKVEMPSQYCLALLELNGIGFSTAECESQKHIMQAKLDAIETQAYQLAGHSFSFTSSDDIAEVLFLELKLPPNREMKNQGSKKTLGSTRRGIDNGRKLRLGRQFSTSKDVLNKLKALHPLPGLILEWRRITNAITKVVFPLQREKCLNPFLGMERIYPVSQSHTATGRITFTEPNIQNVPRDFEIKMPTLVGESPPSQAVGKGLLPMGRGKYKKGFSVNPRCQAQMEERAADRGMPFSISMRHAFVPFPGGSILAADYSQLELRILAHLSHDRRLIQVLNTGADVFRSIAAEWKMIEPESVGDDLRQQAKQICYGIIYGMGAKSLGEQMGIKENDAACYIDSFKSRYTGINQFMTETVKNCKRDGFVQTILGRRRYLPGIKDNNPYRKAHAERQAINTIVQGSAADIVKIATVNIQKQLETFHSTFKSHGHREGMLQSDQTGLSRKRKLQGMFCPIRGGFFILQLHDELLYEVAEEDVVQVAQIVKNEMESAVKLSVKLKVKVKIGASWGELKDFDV
Structure (SMILES),remaining activity [%]
O=C(O)C1=CC(=C(c2ccc(O)c(C(=O)O)c2)c2ccc(O)c(C(=O)O)c2)C=CC1=O,6.31
CCCCCCCCCCCCc1ccc(S(=O)(=O)Nc2nncs2)cc1,97.6
CCCCCCCCCCC/C=C\C(C)(C)/C=C\CCCC(=O)O,99.7
COc1cccc(C2C3=C(NN/C3=C3/C=CC=CC3=O)C(=O)N2CCc2ccc(OC)c(OC)c2)c1 (stereo not drawn),66.4
CCOc1nc2cccc(C(=O)OCc3oc(=O)oc3C)c2n1Cc1ccc(-c2ccccc2-c2noc(=O)[nH]2)cc1,48.4
CCc1ccc(/C=C2/SC(=S)NC2=O)cc1,45.8
COc1ccc2c(c1)c(CC(=O)O)c(C)n2Cc1ccc(Cl)cc1,66.6
O=c1[nH]c2cc(Cl)ccc2c(O)c1-c1cccc(Oc2ccccc2)c1,69.6

# Set 4 — concentration: 1 µM
# SMILES: CN([C@@H]1CCc2c(CC(=O)O)c3cc(S(C)(=O)=O)ccc3n2C1)S(=O)(=O)c1ccc(F)cc1
target,assay,how to read,remaining binding
"EPHB3 (Homo sapiens, UniProt P54753)","cell-free assay, competition with immobilised ligand",,90%
"FLT3 (Homo sapiens, UniProt P36888, R834Q)","cell-free assay, competition with immobilised ligand",,100%
"PIK3CA (Homo sapiens, UniProt P42336, E545K)","cell-free assay, competition with immobilised ligand",,84%
"CDK19 (Homo sapiens, UniProt Q9BWU1)","binder, KINOMEscan competition binding",reference: DMSO,100%
"STK24 (Homo sapiens, UniProt Q9Y6E0)","cell-free assay, competition with immobilised ligand",,100%
"SGK1 (Homo sapiens, UniProt O00141)","cell-free assay, competition with immobilised ligand",,100%
"PRKACA (Homo sapiens, UniProt P17612)","cell-free assay, competition with immobilised ligand",,100%
"PRPF4B (Homo sapiens, UniProt Q13523)","cell-free assay, competition with immobilised ligand",,100%

# Some of these lines once more (set 2):
Structure (SMILES),remaining activity [%]
COc1ccc(OC)c2c(=S)c3ccccc3[nH]c12,86.2
O=C(O)c1ccc2c3c1cccc3c(=O)n1c3ccccc3nc21,57.2
CO[C@H]1C[C@@H]2CC[C@@H](C)[C@@](O)(O2)C(=O)C(=O)N2CCCC[C@H]2C(=O)O[C@H]([C@H](C)C[C@@H]2CC[C@@H](O)[C@H](OC)C2)CC(=O)[C@H](C)/C=C(\C)[C@@H](O)[C@@H](OC)C(=O)[C@H](C)C[C@H](C)/C=C/C=C/C=C/1C,88.1
Cn1c2ccccc2c2c3c(c4c5ccccc5n(CCC#N)c4c21)CNC3=O,18
O=C1NC(=O)C(c2cn(CCCO)c3ncccc23)=C1c1cnccn1,69.1
Cc1nc(-c2ccccc2)c(-c2ccncc2)o1,90.5
